Published values gathered from unrelated publications.
A part holds a random share of what one study measured.
Chain of UniProt P45983 (whole entry, looked up): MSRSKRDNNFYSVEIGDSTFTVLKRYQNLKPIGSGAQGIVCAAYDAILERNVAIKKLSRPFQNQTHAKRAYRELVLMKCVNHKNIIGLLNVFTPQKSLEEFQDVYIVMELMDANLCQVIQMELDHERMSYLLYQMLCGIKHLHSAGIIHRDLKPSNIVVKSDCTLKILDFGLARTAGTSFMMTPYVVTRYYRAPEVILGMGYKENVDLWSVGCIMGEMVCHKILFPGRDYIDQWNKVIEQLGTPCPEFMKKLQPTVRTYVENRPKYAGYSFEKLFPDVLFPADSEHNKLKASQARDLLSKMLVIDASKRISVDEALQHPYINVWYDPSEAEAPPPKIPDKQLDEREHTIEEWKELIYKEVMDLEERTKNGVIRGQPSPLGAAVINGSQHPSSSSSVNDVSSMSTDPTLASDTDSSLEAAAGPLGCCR
Chain of UniProt Q9BZL6 (whole entry, looked up): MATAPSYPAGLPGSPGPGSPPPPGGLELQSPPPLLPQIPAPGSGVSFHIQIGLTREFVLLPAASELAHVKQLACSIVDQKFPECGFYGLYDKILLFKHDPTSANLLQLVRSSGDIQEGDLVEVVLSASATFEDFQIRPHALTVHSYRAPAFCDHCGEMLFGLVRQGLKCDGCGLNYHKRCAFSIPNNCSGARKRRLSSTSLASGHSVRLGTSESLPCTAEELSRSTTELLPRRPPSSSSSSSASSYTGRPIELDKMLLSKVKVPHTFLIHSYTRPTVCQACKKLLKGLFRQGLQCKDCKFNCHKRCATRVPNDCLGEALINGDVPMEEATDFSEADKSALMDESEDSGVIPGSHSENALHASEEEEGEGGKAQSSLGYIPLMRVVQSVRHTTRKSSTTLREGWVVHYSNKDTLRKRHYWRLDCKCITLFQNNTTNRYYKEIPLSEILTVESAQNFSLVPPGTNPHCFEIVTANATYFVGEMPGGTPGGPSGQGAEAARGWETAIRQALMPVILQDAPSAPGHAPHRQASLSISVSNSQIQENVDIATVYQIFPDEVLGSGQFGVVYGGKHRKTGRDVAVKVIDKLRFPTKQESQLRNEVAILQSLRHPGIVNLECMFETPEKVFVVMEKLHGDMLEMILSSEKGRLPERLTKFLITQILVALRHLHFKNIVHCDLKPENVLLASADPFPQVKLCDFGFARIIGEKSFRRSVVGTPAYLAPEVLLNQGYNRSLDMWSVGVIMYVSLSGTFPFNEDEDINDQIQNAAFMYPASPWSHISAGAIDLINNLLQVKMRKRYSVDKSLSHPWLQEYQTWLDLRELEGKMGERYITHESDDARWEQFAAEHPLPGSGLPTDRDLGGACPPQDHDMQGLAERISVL
Chain of UniProt P05771 (whole entry, looked up): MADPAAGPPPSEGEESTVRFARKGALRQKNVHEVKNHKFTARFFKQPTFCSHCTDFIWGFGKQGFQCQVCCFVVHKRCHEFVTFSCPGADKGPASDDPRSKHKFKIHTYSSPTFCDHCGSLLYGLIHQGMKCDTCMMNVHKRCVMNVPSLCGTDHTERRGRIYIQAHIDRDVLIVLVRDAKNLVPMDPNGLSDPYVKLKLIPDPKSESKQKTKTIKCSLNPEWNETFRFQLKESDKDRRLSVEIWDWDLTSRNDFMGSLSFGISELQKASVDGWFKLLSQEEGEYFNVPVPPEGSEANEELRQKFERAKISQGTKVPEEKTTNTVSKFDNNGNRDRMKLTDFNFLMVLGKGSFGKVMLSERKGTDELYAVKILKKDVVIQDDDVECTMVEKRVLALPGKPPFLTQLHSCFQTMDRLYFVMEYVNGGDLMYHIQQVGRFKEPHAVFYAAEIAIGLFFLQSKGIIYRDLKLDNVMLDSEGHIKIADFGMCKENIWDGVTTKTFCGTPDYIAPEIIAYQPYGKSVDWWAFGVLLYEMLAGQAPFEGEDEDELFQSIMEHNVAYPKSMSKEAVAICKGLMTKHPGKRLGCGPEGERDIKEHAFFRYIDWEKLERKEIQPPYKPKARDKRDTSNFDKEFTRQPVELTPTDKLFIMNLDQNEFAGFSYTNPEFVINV
Chain of UniProt Q96KB5 (whole entry, looked up): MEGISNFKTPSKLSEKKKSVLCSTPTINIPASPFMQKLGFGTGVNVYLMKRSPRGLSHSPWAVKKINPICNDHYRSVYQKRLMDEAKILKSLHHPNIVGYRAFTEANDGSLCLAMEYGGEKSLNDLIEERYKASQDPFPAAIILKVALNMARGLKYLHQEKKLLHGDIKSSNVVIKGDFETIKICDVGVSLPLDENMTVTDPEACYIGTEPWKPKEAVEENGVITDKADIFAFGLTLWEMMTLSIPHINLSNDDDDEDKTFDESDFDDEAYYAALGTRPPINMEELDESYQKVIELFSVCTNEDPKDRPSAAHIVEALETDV
Chain of UniProt Q9BUB5 (whole entry, looked up): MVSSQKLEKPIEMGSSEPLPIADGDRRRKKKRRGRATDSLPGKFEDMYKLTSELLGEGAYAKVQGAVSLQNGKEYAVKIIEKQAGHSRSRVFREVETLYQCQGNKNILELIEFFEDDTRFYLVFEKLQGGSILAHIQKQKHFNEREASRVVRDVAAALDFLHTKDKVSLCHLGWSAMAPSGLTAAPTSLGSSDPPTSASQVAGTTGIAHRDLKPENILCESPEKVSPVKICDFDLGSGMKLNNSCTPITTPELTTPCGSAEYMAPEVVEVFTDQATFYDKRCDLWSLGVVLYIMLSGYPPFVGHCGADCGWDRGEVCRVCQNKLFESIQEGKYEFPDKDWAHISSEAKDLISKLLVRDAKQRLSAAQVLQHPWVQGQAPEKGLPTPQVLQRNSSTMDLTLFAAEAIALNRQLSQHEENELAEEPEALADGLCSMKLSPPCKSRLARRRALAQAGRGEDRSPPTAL
Chain of UniProt Q9Y6E0 (whole entry, looked up): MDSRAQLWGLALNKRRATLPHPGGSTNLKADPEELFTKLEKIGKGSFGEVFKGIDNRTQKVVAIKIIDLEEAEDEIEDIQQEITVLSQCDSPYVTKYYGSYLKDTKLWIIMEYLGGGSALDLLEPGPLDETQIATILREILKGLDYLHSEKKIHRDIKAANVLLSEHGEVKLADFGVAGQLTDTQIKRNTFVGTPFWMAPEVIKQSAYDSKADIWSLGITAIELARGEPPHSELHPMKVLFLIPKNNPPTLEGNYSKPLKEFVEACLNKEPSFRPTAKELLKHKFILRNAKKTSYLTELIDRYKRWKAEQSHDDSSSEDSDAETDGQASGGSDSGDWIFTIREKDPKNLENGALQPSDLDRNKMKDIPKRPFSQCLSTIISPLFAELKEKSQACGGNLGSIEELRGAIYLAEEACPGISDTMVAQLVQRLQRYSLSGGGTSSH
Chain of UniProt P29597 (whole entry, looked up): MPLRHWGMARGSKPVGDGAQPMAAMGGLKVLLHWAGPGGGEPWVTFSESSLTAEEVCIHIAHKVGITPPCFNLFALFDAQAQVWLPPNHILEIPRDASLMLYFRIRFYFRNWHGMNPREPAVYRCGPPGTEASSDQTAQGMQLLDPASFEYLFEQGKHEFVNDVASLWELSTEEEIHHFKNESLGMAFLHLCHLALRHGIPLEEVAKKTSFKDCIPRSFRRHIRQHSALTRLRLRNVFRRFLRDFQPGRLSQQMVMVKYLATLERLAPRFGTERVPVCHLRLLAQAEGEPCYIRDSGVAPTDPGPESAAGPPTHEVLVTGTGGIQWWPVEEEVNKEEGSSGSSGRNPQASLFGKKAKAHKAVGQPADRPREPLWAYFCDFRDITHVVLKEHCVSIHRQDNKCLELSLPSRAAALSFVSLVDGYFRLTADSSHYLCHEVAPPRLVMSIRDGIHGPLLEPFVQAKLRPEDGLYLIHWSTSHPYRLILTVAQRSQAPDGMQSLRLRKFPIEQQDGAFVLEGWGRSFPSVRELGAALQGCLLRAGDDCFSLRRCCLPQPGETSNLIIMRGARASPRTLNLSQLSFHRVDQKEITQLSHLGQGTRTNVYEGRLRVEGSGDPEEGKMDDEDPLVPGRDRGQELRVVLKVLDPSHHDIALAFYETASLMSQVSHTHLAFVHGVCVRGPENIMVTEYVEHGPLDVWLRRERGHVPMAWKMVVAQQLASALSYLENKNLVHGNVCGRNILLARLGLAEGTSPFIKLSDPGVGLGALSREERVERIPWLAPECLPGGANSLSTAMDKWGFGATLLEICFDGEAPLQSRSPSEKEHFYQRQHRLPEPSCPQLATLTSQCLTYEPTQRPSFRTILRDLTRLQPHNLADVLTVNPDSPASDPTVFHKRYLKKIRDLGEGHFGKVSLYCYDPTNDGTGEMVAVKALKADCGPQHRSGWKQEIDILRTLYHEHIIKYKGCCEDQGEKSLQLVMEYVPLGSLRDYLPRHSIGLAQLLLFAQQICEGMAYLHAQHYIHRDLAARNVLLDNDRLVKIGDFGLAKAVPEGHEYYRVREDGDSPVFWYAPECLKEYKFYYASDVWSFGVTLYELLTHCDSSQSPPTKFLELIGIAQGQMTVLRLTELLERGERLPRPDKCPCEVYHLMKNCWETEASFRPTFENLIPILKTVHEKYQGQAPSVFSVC

Series 1
Compound: O=C1CCC(N2Cc3c(ccc4c3OCC43CCN(Cc4ccccc4)CC3)C2=O)C(=O)N1 (stereo not drawn)
Medium: plasma
species	route	dose	time	concentration [ng/mL]
male Sprague-Dawley rat	intravenous	1 mg/kg	15 min	354
male Sprague-Dawley rat	oral	3 mg/kg	4.98 min	3.4
male Sprague-Dawley rat	oral	3 mg/kg	30 min	62.7
male CD-1 mouse	intravenous	1 mg/kg	30 min	183
male CD-1 mouse	oral	3 mg/kg	4 h	101
male CD-1 mouse	intravenous	1 mg/kg	15 min	219
male CD-1 mouse	oral	3 mg/kg	4.98 min	83.1
male CD-1 mouse	intravenous	1 mg/kg	8 h	5.07
male CD-1 mouse	oral	3 mg/kg	24 h	1.35
male CD-1 mouse	intravenous	1 mg/kg	6 h	8.4
male Sprague-Dawley rat	intravenous	1 mg/kg	6 h	29.5
male Sprague-Dawley rat	intravenous	1 mg/kg	4 h	67.4
male CD-1 mouse	oral	3 mg/kg	8 h	24.8

Series 2
Target: Synaptic vesicular amine transporter (SLC18A2, Homo sapiens, UniProt Q05940)
Chain of UniProt Q05940 (whole entry, looked up): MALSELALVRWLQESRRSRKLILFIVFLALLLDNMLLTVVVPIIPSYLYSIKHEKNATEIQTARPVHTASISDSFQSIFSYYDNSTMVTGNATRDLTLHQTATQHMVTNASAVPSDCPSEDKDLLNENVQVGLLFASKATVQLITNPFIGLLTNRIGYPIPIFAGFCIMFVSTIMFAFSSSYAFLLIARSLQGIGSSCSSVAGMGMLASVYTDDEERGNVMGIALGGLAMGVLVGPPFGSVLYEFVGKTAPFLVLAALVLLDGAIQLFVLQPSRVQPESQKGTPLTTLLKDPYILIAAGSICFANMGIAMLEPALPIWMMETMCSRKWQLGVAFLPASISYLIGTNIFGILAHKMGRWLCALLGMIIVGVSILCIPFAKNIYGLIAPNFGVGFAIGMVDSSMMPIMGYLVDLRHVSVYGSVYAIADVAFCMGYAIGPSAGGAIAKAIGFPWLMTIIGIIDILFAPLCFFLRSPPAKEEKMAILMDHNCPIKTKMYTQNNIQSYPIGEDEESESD
Action: inhibitor
Setting: literature data
Structure (SMILES)	IC50
COc1ccc(CC2c3cc(OC)c(OC)cc3CCN2C)cc1OC (stereo not drawn)	> 10 µM
COc1cc2c(cc1OC)[C@H](C)NCC2	> 10 µM
CN[C@@H](C)Cc1ccccc1	13.3 µM
N#Cc1ccccc1-c1cc(-c2ccccn2)cn(-c2ccccc2)c1=O	> 10 µM
CC(CCc1ccccc1)NC(C)C(O)c1ccc(O)cc1 (stereo not drawn)	0.35 µM
Cc1ncc2n1-c1ccc(Cl)cc1C(c1ccccc1F)=NC2	> 10 µM
C[N+]1(C)[C@@H]2C[C@@H](OC(=O)[C@H](CO)c3ccccc3)C[C@H]1[C@@H]1O[C@@H]12	> 10 µM

Series 3
Compound: N/C(=N\[N+](=O)[O-])N/N=C\c1ccc(-c2cccc([N+](=O)[O-])c2)o1
Read-out: enzyme activity
Action: inhibitor
Concentration: 0.5 µM
Relative to: control
target	remaining activity [%]
STK24 (Homo sapiens, UniProt Q9Y6E0)	87.7
PRKD2 (Homo sapiens, UniProt Q9BZL6)	94.3
PBK (Homo sapiens, UniProt Q96KB5)	111
EPHA1 (Homo sapiens, UniProt P21709)	88.9
MKNK1 (Homo sapiens, UniProt Q9BUB5)	97.4
CAMK2G (Homo sapiens, UniProt Q13555)	82.2
Protein kinase C beta type, isoform beta-II (PRKCB, Homo sapiens, UniProt P05771)	100
MAPK8 (Homo sapiens, UniProt P45983)	91.2
TYK2 (Homo sapiens, UniProt P29597)	110

Series 4
Cell line: Huh-7
Concentration: 10 µM
Time: 24 h
Structure (SMILES)	viability
Cc1ccc(/N=C/N(C)/C=N/c2ccc(C)cc2C)c(C)c1	92.3%
C[N+]12CCC(CC1)C(OC(=O)C(O)(c1ccccc1)c1ccccc1)C2 (stereo not drawn)	103%
C[C@]12CCC(=O)C=C1C=C[C@@H]1[C@@H]2CC[C@@]2(C)[C@H]1CC[C@@]2(O)CCC(=O)O	101%
CN1C[C@H](C(=O)N[C@]2(C)O[C@@]3(O)[C@@H]4CCCN4C(=O)[C@H](Cc4ccccc4)N3C2=O)C=C2c3cccc4[nH]cc(c34)C[C@H]21	91.3%

Some of these lines once more (series 1):
species	route	dose	time	concentration [ng/mL]
male CD-1 mouse	oral	3 mg/kg	4 h	101
male CD-1 mouse	intravenous	1 mg/kg	15 min	219
